Results pooled from the literature.
A part holds a random share of what one study measured.
Chain of UniProt O00238 (whole entry, looked up): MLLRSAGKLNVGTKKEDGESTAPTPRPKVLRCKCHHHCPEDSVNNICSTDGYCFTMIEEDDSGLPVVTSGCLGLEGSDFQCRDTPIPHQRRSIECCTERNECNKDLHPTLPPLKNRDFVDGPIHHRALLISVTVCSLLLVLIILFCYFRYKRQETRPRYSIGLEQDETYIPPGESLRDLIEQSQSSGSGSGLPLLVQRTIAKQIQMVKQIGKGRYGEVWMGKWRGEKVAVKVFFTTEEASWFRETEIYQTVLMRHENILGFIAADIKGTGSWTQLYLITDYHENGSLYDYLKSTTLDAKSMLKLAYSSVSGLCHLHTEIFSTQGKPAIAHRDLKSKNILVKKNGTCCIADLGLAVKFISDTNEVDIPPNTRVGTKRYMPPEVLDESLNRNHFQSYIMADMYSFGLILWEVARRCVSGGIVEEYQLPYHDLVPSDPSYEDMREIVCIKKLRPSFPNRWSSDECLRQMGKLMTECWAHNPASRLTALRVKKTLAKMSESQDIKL
Chain of UniProt P31751 (whole entry, looked up): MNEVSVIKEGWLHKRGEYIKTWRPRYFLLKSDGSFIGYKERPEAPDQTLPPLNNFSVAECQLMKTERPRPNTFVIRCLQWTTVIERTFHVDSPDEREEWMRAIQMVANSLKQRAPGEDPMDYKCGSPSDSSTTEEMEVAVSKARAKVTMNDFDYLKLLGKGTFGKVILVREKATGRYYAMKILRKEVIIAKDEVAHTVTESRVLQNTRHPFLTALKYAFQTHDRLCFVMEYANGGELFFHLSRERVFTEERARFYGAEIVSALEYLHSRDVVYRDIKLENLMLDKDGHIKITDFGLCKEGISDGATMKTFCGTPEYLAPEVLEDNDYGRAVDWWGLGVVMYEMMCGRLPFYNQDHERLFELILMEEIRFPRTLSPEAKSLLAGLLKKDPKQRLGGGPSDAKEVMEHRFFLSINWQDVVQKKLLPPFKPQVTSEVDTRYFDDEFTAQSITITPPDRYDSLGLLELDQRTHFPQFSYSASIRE
Chain of UniProt Q09013 (whole entry, looked up): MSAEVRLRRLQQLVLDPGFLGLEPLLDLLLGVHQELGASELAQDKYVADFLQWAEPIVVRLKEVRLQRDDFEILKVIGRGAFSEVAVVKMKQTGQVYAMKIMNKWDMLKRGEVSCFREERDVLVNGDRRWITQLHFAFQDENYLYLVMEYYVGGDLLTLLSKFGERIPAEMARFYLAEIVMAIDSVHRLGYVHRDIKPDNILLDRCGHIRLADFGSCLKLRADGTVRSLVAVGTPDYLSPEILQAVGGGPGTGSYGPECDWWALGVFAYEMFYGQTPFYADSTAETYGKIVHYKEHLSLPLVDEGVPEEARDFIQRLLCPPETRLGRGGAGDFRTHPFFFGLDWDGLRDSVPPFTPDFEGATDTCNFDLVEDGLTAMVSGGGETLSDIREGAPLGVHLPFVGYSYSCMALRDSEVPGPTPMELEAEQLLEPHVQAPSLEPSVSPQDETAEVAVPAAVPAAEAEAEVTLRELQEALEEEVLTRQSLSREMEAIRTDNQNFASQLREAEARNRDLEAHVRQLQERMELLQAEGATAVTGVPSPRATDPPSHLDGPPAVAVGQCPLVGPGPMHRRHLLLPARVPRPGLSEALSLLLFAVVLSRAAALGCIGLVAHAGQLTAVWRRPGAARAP
Chain of UniProt Q8TF76 (whole entry, looked up): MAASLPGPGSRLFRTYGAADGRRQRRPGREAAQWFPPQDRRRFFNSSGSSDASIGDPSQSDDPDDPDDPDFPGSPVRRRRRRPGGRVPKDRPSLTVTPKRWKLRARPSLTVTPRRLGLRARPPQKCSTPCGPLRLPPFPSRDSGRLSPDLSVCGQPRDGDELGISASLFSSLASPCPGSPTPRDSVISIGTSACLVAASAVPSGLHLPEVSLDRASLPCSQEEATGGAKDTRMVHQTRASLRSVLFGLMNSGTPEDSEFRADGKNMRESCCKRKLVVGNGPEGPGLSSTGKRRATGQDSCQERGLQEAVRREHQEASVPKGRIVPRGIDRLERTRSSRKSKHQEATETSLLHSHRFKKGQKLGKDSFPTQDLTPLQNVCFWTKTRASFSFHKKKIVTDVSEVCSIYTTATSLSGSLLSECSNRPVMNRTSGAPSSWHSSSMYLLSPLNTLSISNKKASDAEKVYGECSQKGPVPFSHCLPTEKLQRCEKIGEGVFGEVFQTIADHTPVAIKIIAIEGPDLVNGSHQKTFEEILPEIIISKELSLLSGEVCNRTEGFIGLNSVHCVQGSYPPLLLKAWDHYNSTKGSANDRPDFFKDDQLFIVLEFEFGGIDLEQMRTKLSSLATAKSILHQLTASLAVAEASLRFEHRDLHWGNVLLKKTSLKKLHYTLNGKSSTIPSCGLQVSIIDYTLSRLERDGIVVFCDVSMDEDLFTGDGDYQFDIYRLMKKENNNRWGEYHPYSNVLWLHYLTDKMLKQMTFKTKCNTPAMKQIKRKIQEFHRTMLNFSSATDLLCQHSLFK
Chain of UniProt O15111 (whole entry, looked up): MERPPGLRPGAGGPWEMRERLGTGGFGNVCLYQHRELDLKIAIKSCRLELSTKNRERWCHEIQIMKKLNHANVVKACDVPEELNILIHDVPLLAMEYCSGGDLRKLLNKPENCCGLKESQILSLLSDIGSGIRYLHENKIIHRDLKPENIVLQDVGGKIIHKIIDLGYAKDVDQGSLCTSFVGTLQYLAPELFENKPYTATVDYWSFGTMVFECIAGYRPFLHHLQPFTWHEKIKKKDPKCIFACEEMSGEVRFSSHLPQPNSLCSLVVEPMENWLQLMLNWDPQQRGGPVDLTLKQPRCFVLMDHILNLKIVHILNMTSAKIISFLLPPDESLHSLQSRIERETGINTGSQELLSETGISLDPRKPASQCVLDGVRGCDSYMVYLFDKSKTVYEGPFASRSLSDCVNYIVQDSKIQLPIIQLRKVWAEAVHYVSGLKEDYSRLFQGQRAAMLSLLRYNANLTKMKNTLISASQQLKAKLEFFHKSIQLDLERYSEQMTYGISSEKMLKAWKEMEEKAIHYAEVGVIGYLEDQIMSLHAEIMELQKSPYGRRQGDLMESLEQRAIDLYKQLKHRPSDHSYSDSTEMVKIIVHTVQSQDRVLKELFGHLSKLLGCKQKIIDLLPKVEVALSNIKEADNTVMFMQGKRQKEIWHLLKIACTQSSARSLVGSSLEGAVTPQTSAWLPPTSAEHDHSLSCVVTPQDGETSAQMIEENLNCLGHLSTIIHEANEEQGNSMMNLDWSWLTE

Set 1
Target: Ephrin type-A receptor 8 (EPHA8, Homo sapiens, UniProt P29322)
Chain of UniProt P29322 (whole entry, looked up): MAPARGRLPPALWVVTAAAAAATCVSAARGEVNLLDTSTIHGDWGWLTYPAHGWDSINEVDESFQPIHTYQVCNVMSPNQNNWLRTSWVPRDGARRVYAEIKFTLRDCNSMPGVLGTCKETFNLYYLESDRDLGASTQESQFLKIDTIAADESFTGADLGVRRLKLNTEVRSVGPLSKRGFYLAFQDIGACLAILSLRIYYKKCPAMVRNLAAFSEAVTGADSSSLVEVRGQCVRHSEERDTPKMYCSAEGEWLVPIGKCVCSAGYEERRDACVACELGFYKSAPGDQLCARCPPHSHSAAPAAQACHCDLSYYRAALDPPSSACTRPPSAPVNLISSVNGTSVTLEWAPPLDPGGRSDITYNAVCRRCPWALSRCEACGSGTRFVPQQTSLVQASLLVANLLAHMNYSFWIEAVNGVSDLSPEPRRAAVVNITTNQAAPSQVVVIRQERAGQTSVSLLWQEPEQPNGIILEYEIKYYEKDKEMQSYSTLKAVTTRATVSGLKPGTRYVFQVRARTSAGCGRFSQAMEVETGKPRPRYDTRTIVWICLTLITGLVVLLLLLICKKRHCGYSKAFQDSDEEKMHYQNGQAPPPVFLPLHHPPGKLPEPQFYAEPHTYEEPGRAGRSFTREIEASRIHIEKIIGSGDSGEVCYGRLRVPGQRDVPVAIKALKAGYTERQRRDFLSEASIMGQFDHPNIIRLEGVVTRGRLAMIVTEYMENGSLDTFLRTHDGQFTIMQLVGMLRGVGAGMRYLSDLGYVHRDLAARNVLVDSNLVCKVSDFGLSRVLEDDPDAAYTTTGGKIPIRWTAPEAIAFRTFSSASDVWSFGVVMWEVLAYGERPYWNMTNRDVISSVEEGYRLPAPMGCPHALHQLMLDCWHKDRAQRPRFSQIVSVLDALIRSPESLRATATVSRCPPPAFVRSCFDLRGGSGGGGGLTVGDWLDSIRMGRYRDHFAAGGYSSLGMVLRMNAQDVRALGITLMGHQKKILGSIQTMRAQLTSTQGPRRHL
Observed: enzyme activity
Action: inhibitor
Concentration: 0.5 µM
Relative to: control
The remaining activity of `Cc1ccc(Nc2nccc(N(C)c3ccc4c(C)n(C)nc4c3)n2)cc1S(N)(=O)=O` is reported as 90%.
With `O=S(=O)(c1cccc2cnccc12)N1CCCNCC1` the remaining activity was 106%.
For `Cn1sc(=O)n(Cc2ccccc2)c1=O`, the remaining activity was 94.4%.
The remaining activity of `Cc1cccc(-c2[nH]c(C(C)(C)C)nc2-c2ccc3c(c2)OCO3)n1` is reported as 89.9%.
The remaining activity of `Cc1nc(-c2ccccc2)c(-c2ccncc2)o1` is reported as 78.8%.
`O=C1NC(=O)C(c2cn(CCCn3ccnc3)c3ccccc23)=C1Nc1ccccc1` gave a remaining activity of 104%.
`O=C(Nc1cccc(Nc2cc(Nc3cccc(C(F)(F)F)c3)ncn2)c1)C1CC1` gave a remaining activity of 103%.
The remaining activity of `COc1cc2ncnc(Nc3ccc(Oc4ccccc4)cc3)c2cc1OC` is reported as 97.4%.
`Cc1ccc(NC(=O)c2ccc(CN3CCN(C)CC3)cc2)cc1Nc1nc(-c2cccnc2)cs1` has a remaining activity of 93.1%.
`CC(C)[C@H](CO)Nc1nc(Nc2cc(N)cc(Cl)c2)c2ncn(C(C)C)c2n1` gave a remaining activity of 92.5%.
For `N#CC(C#N)=C(N)/C(C#N)=C/c1ccc(O)cc1`, the remaining activity was 102%.
For `CCOC(=O)c1c(C)[nH]c(/C=C2\C(=O)Nc3ccccc32)c1C`, the remaining activity was 88.7%.
The remaining activity of `Cn1c2ccccc2c2c3c(c4c5ccccc5n(CCC#N)c4c21)CNC3=O` is reported as 91.7%.
With `Nc1ccc2ncnc(NCCc3ccc(Oc4ccccc4)cc3)c2c1` the remaining activity was 101%.
`O=C1NC(=O)C(c2cn(CCCO)c3ncccc23)=C1c1cnccn1` gave a remaining activity of 86.9%.

Set 2
Target: Ras GTPase-activating protein-binding protein 1, C-terminal RGG region (G3BP1, Homo sapiens, UniProt Q13283)
Chain of UniProt Q13283 (whole entry, looked up): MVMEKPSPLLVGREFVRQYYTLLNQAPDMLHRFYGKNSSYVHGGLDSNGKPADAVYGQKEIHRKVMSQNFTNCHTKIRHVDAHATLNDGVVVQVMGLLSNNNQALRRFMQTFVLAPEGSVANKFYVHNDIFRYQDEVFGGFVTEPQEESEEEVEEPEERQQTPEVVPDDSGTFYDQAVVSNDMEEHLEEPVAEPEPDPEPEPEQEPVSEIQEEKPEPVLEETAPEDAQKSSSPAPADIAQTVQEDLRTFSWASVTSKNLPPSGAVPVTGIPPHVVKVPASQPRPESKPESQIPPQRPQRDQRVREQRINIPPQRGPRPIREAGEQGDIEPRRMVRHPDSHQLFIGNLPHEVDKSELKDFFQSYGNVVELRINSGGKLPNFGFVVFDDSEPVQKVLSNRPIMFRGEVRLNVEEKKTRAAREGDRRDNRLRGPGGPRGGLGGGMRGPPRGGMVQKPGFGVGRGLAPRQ
Method: RNA Bind-n-Seq
Form: RNA
Matrix: in vitro
Concentration: 1 µM
Notes: whole 134-nt RNA, ends assumed
Added: 150 mM KCl
Relative to: input library
Direction: higher = stronger binding
All sequences stand within: GGGAGUUCUACAGUCCGACGAUC … UGGAAUUCUCGGGUGUCAAGG
The log2 enrichment of `UAGGAGGUGGAUUUUGUUUAUUUUUUUAGCUCAUUUCCAGGGGUGGGAAUUUUUUUUUAAUAUGUGUCAUGAAUAAAGUUGUUUUUGAAA` is reported as 3.43.
`UCAAGUCCUGUGCUACACAUCGUAUGUACCGAAUCGGGCCCGGCCCGGGGCCCGGAAAGUAUUAUGUUACGCCGUUCGGAUCUGCACUUC` gave a log2 enrichment of -1.61.
For `UGGCCCUGGUGGCAUGCGGGGAGGAAGAGGUGGCCUCAUGGAUCGUGGUGGUCCCGGUGGAAAGUUCAGAGGUGGCCGUGGUGGAGACAG`, the log2 enrichment was 1.59.
For `UCCUGUGCUACACAUCGUAUGUACCGAAUCGGAAAAAAGGGGAAAAAAGGGAAAAAAGGGAAAGUAUUAUGUUACGCCGUUCGGAUCUGC`, the log2 enrichment was -1.13.
For `UGGCCCUGGUGGCAUGCGGGGAGGAAGAGGUUGCCUCAUGGAUCGUGGUGGUCCCGGUGGAAUGUUCAGAGGUGGCCGUGGUGGAGACAG`, the log2 enrichment was 1.96.
With `CAAGUCCUGUGCUACACAUCGUAUGUACCGAAUCGGGGUUUGGGGUUUGGGUUUGGAAAGUAUUAUGUUACGCCGUUCGGAUCUGCACUU` the log2 enrichment was -0.977.
`UGUGCUACACAUCGUAUGUACCGAAUCGGGGCCCCCCCGGGGCCCCCCCGGGGCCCCCCCGGAAAGUAUUAUGUUACGCCGUUCGGAUCU` has a log2 enrichment of -2.26.
`UGGCCCUGGUGGCAUGCGGGGAGGAAGAGGUGGCCUCAUGGAUCGUCGUGGUCCCGGUGGAAUGUUCAGAGGUGGCCGUGGUGGAGACAG` gave a log2 enrichment of 2.27.

Set 3
Target: Histone acetyltransferase KAT6A, both winged helices, GST fusion (KAT6A, Homo sapiens, UniProt Q92794, residues 1-181)
Method: protein binding microarray
Form: double-stranded DNA, one strand shown
Matrix: in vitro
Concentration: not given
Notes: 8-mer, flanks averaged, mean of 2 arrays, mostly near background
Relative to: not given
Direction: higher = stronger binding
Target sequence (chain): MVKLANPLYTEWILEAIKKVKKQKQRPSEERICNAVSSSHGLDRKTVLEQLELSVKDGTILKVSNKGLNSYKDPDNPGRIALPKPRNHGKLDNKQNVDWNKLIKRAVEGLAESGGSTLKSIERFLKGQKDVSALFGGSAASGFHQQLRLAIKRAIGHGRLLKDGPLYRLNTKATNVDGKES
The E-score of `CTACGATA` is reported as -0.202.
`GTTTGTCA` has an E-score of 0.0176.
`AGGTAGAC` gave an E-score of -0.0773.
`AAGTATGA` gave an E-score of -0.0991.
`ATGTTCCA` has an E-score of -0.0581.
For `ATAAATGA`, the E-score was -0.15.
With `GGACATCC` the E-score was 0.0729.
`CTTTTTTC` gave an E-score of -0.0368.

Set 4
Structure (SMILES): FC(F)(F)c1ccc2c(c1)nc(-c1cccnc1)n2C1CC1
Observed: cell-free assay
Method: competition with immobilised ligand
Concentration: 1 µM
The remaining binding was 83% (BMPR1B (Homo sapiens, UniProt O00238)).
It gave 92% for remaining binding (DMPK (Homo sapiens, UniProt Q09013)).
The remaining binding was 100% (CHUK (Homo sapiens, UniProt O15111)).
For MAP3K4 (Homo sapiens, UniProt Q9Y6R4): remaining binding read 100%.
AKT2 (Homo sapiens, UniProt P31751) — remaining binding: 100%.
For HASPIN (Homo sapiens, UniProt Q8TF76): remaining binding read 96%.

Some of these lines once more (set 4):
AKT2 (Homo sapiens, UniProt P31751) — remaining binding: 100%.
It gave 92% for remaining binding (DMPK (Homo sapiens, UniProt Q09013)).
For MAP3K4 (Homo sapiens, UniProt Q9Y6R4): remaining binding read 100%.
The remaining binding was 100% (CHUK (Homo sapiens, UniProt O15111)).
The remaining binding was 83% (BMPR1B (Homo sapiens, UniProt O00238)).
